Published values gathered from unrelated publications.
Lines come from different studies, so protocols differ. In brackets after ≈: the same amount, converted by molar mass.

The kinetic solubility of `Cc1ncsc1-c1ccc(CNC(=O)[C@@H]2C[C@@H](O)CN2C(=O)[C@@H](NC(=O)CCCCCCCCC(=O)N2CCN(c3ncc(-c4cc(NC(=O)c5ccc(F)cc5C(F)(F)F)c(N5C[C@@H](C)N(C)[C@@H](C)C5)cc4F)cn3)CC2)C(C)(C)C)cc1` is reported as 0.198 µM (≈ 0.235 µg/mL) (aqueous buffer; pH 7.4).
The kinetic solubility of `NC1(CNC(=O)Oc2cccc([C@H]3CCC[C@@]4(C3)OOC3(O4)C4CC5CC(C4)CC3C5)c2)CCCC1` (stereo partly shown) is reported as 87.6 µM (≈ 43.5 µg/mL) (PBS; pH 7.4).
`CCc1nnc(-c2c(OC)cc(-c3cnc4cc(-c5cnn(C)c5)ccn34)cc2OC)o1` has a kinetic solubility of < 1.6 µM (aqueous buffer; pH 7.4).
The thermodynamic solubility of `CC[C@H](C)[C@H](NC(=O)[C@H](C)NC(=O)CNC(=O)[C@H](Cc1ccccc1)NC(=O)[C@H](CC(N)=O)NC(=O)[C@H](CC(N)=O)NC(=O)[C@H](CO)NC(=O)[C@H](CO)NC(=O)[C@H](Cc1c[nH]cn1)NC(=O)[C@@H](NC(=O)[C@H](CC(C)C)NC(=O)[C@H](Cc1ccccc1)NC(=O)[C@H](CC(N)=O)NC(=O)[C@H](C)NC(=O)[C@H](CC(C)C)NC(=O)[C@H](CCCNC(=N)N)NC(=O)[C@H](CCC(N)=O)NC(=O)[C@@H](NC(=O)[C@H](C)NC(=O)[C@@H]1CSSC[C@H](NC(=O)[C@@H](N)CCCCN)C(=O)N[C@@H](CC(N)=O)C(=O)N[C@@H]([C@@H](C)O)C(=O)N[C@@H](C)C(=O)N[C@@H]([C@@H](C)O[C@H]2O[C@H](CO)[C@H](O)[C@H](O)[C@H]2NC(C)=O)C(=O)N1)[C@@H](C)O)C(C)C)C(=O)N[C@@H](CC(C)C)C(=O)N[C@@H](CO)C(=O)N[C@@H](CO)C(=O)N[C@H](C(=O)N[C@@H](CC(N)=O)C(=O)N[C@H](C(=O)NCC(=O)N[C@@H](CO)C(=O)N[C@@H](CC(N)=O)C(=O)N[C@H](C(=O)N[C@@H](Cc1ccc(O)cc1)C(N)=O)[C@@H](C)O)C(C)C)[C@@H](C)O` is reported as 50 µg/mL (≈ 12.2 µM) (PBS; 1 h, pH 7.4).
With `CC1COC2=C1C(=O)C(=O)c1c2ccc2c1C(OC(=O)CNC(=O)C(N)CCC(=O)O)CCC2(C)C` (mixture of isomers) the thermodynamic solubility was 2140 µg/mL (PBS; pH 4, 25 °C).
`CCCCC(CC)COC(=O)CC(C(=O)OCC(CC)CCCC)S(=O)(=O)O.CCCSc1ccc2[nH]c(NC(=O)OC)nc2c1` (stereo not shown) gave a solubility of < 1 µg/mL (water).
For `CC1COC2=C1C(=O)C(=O)c1c2ccc2c1C(OC(=O)CNC(=O)CN)CCC2(C)C` (mixture of isomers), the thermodynamic solubility was 366 µg/mL (PBS; pH 4, 25 °C).
With `O=C(CN1CN(c2ccccc2)C2(CCN(C(=O)c3cnc4[nH]ncc4c3)CC2)C1=O)NCC(F)(F)F` the solubility was 1.1 µg/mL (≈ 2.13 µM) (aqueous buffer; pH 6.5).
For `CC1COC2=C1C(=O)C(=O)c1c2ccc2c1C(OC(=O)CNC(=O)C(N)CO)CCC2(C)C` (mixture of isomers), the thermodynamic solubility was 497 µg/mL (PBS; pH 6.4, 25 °C).
`CC[C@H](C)[C@H](NC(=O)[C@H](C)NC(=O)CNC(=O)[C@H](Cc1ccccc1)NC(=O)[C@H](CC(N)=O)NC(=O)[C@H](CC(N)=O)NC(=O)[C@H](CO)NC(=O)[C@H](CO)NC(=O)[C@H](Cc1c[nH]cn1)NC(=O)[C@@H](NC(=O)[C@H](CC(C)C)NC(=O)[C@H](Cc1ccccc1)NC(=O)[C@H](CC(N)=O)NC(=O)[C@H](C)NC(=O)[C@H](CC(C)C)NC(=O)[C@H](CCCNC(=N)N)NC(=O)[C@H](CCC(N)=O)NC(=O)[C@@H](NC(=O)[C@H](C)NC(=O)[C@@H]1CSSC[C@H](NC(=O)[C@@H](N)CCCCN)C(=O)N[C@@H](CC(N)=O)C(=O)N[C@@H]([C@@H](C)O)C(=O)N[C@@H](C)C(=O)N[C@@H]([C@@H](C)O)C(=O)N1)[C@@H](C)O[C@H]1O[C@H](CO)[C@H](O)[C@H](O)[C@H]1NC(C)=O)C(C)C)C(=O)N[C@@H](CC(C)C)C(=O)N[C@@H](CO)C(=O)N[C@@H](CO)C(=O)N[C@H](C(=O)N[C@@H](CC(N)=O)C(=O)N[C@H](C(=O)NCC(=O)N[C@@H](CO)C(=O)N[C@@H](CC(N)=O)C(=O)N[C@H](C(=O)N[C@@H](Cc1ccc(O)cc1)C(N)=O)[C@@H](C)O)C(C)C)[C@@H](C)O` gave a thermodynamic solubility of 54 µg/mL (≈ 13.1 µM) (PBS; 1 h, pH 7.4).

Excerpt of the above:
`CCc1nnc(-c2c(OC)cc(-c3cnc4cc(-c5cnn(C)c5)ccn34)cc2OC)o1` has a kinetic solubility of < 1.6 µM (aqueous buffer; pH 7.4).
